Measurements gathered from unrelated publications.
Compare with care: the assays were run in different laboratories. Numbers after ± are the reported error.
Genome polyprotein NS3 helicase domain: Genome polyprotein, NS3 helicase domain (Hepatitis C virus genotype 1b, UniProt Q9WMX2)
DRD3: D(3) dopamine receptor (DRD3, Homo sapiens, UniProt P35462)
KCNQ3/KCNQ2: Voltage-gated potassium channel, KQT; KCNQ2(Kv7.2)/KCNQ3(Kv7.3) (KCNQ3/KCNQ2, Homo sapiens, UniProt O43525+O43526)
MAP2K4: Dual specificity mitogen-activated protein kinase kinase 4 (MAP2K4, Homo sapiens, UniProt P45985)

CC(C)[C@H](NC(=O)OCc1ccccc1)C(=O)N[C@H](C=O)Cc1ccccc1 — inhibition (Genome polyprotein NS3 helicase domain; DNA binding, inhibitor; hepatitis C virus; 100 µM, with: Cy5-dT15 DNA): 1%
CCCCCCCCCC1NCCc2cc(O)c(O)cc21 (stereo not shown) — inhibition (tyrosinase; enzyme activity, inhibitor; 100 µM, with: levodopa): 1.76 ± 3.99%
O=C(NO)c1ccc(CN2CCCCc3ccccc32)c(F)c1 — inhibition (DRD3; radioligand binding, radioligand displacement; 10 µM, mean of replicates): 42.8%
NCC(=O)NCCC(c1ccccc1)c1ccccc1 — inhibition (Genome polyprotein NS3 helicase domain; DNA binding, inhibitor; hepatitis C virus; 100 µM, with: Cy5-dT15 DNA): 0%
CN(C(=O)n1cnc(-c2ccc[n+]([O-])c2)c1)C1CCCCC1 — inhibition (EDNRB (Homo sapiens, UniProt P24530); 10 µM): 16.5%
Cn1c(=O)c2[nH]cnc2n(C)c1=O — inhibition (KCNQ3/KCNQ2; ion current, antagonist, SyncroPatch patch clamp; HEK293; 30 µM): -19%
CCc1ccccc1OC[C@@H](O)CN[C@H]1CCCc2ccccc21.O=C(O)C(=O)O — inhibition (Genome polyprotein NS3 helicase domain; DNA binding, inhibitor; hepatitis C virus; 100 µM, with: Cy5-dT15 DNA): 0%
Cc1cc(-c2ccnc3[nH]cc(F)c23)cc(F)c1[C@@]1(O)[C@H](C)CN(C(=O)CN)C[C@@H]1C — inhibition (CDK11 and CDK8; ATP probe binding, KiNativ, item: Lys2 site; HEK293T cell lysate; 10 µM): 64.5%
O=C(CN1CCO[C@@H](COc2ccccn2)C1)N1CCc2ccccc21 — inhibition (DRD3; radioligand binding; concentration not given, with: [3H]N-methylspiperone): 4.5%
Cl.NO — inhibition (Genome polyprotein NS3 helicase domain; DNA binding, inhibitor; hepatitis C virus; 100 µM, with: Cy5-dT15 DNA): 1%
COc1cccc(OC[C@H]2CN(CCN3CCc4ccccc43)CCO2)c1 — inhibition (DRD3; radioligand binding; concentration not given, with: [3H]N-methylspiperone): 0.3%
CNc1cccc2cc(C(=O)Nc3ccc(C(=O)O)cc3)c(=O)[nH]c12 — inhibition (Protein kinase C beta type, beta-II isoform (PRKCB, Homo sapiens, UniProt P05771); 10 µM): 3.9%
CC(=O)O[C@H]1C[C@@H]2CC[C@@H]3[C@H](CC[C@@]4(C)[C@H]3C[C@H]([N+]3(C)CCCCC3)[C@@H]4OC(C)=O)[C@@]2(C)C[C@@H]1[N+]1(C)CCCCC1 — inhibition (Genome polyprotein NS3 helicase domain; DNA binding, inhibitor; hepatitis C virus; 100 µM, with: Cy5-dT15 DNA): 1%
CC[C@@H]1[C@H](F)C(=O)N[C@@H]1COc1nccc2cc(C(N)=O)c(OC)cc12 — inhibition (MAP2K4; ATP-site probe binding, ActivX profiling; THP-1 cell lysate; 0.01 mM, Lys1 site): -9.4%
C[C@@H]1C(=O)NC2=Nc3cccc(Cl)c3CN21 — inhibition (Genome polyprotein NS3 helicase domain; DNA binding, inhibitor; hepatitis C virus; 100 µM, with: Cy5-dT15 DNA): 0%
O=C1NC(=O)C(c2ccccc2)(c2ccccc2)N1 — inhibition (KCNQ3/KCNQ2; ion current, antagonist, SyncroPatch patch clamp; HEK293; 3 µM): 0%
COc1ccc(-n2nc(OCCCN3CCCCC3)ccc2=O)cc1 — inhibition (alpha1 adrenergic receptor; radioligand binding; 1.0 µM): 16 ± 2.02%
CNc1cc(Oc2cc(C(=O)Nc3cc(N4CCN(C)CC4)cc(C(F)(F)F)c3)ccc2C)ncn1 — inhibition (MAP2K4; probe labelling, KiNativ; Huh-7, live cells; 1 µM, Lys2 site, peptide DIKPSNILLDR): -97.6%
Cn1cc(-n2cnc3c(NCc4nc5cc(Cl)c(Cl)cc5[nH]4)nc(N4CCOCC4)nc32)cn1 — inhibition (Cyclin-dependent kinase 12, with cyclin K (CDK12, Homo sapiens, UniProt Q9NYV4); kinase activity, inhibitor, ADP-Glo; 0.0009 µM): 18.4%
